Measured values gathered from unrelated publications.
Lines come from different studies, so protocols differ.

| Compound | organism | assay | test system | conditions | MIC |
| --- | --- | --- | --- | --- | --- |
| CCCCCCCCCCCCCC(=O)N[C@H](CCN)C(=O)N[C@@H]1C(=O)N[C@@H](CCN)C(=O)N[C@@H](CC(C)C)C(=O)N[C@@H](CCN)C(=O)N[C@H](Cc2ccccc2)C(=O)N[C@@H](CC(C)C)C(=O)N[C@@H](CCN)C(=O)N[C@H](CCN)C(=O)N[C@@H](C(C)C)C(=O)N[C@@H](CC(=O)O)C(=O)O[C@@H]1C | Proteus mirabilis |  | intrinsically colistin-resistant |  | 8 µg/mL |
| COc1ccc(C2=[N+]([O-])c3ccccc3N3CCCN=C23)cc1 | Clostridioides difficile |  |  |  | 0.25 to 8 µg/mL |
| CC[C@H](C)[C@@H]1NC(=O)[C@H](CO)NC(=O)[C@H](CCCCN)NC(=O)[C@@H]2CSSC[C@@H](C(=O)N[C@@H](Cc3ccc(O)cc3)C(N)=O)NC(=O)[C@H](CCCCN)NC(=O)[C@@H]3CSSC[C@H](NC(=O)[C@H](CCCNC(=N)N)NC(=O)[C@H](CC(C)C)NC(=O)[C@H](CC(=O)O)NC(=O)[C@H](CC(=O)O)NC(=O)[C@H](CCC(=O)O)NC(=O)[C@H](CC(N)=O)NC(=O)[C@H](Cc4c[nH]c5ccccc45)NC(=O)C(C)(CC)NC(=O)CNC(=O)[C@H](CC(N)=O)NC(=O)[C@@H](NC(=O)CNC(=O)[C@H](Cc4ccccc4)NC(=O)CN)CSSC[C@H](NC(=O)[C@H](Cc4ccc(O)cc4)NC(=O)CNC(=O)CNC(=O)[C@H](CCCCN)NC(=O)[C@H](Cc4ccc(O)cc4)NC(=O)[C@H]4CCCN4C(=O)[C@@H]4CCCN4C1=O)C(=O)N[C@@H](C)C(=O)N[C@@H](CCCCN)C(=O)N1CCC[C@@H]1C(=O)NCC(=O)N[C@@H](Cc1ccccc1)C(=O)N[C@@H](C(C)C)C(=O)N3)C(=O)N[C@@H](Cc1c[nH]cn1)C(=O)N[C@@H](CC(N)=O)C(=O)N[C@@H](Cc1c[nH]cn1)C(=O)N2 (stereo partly drawn) | Streptococcus pneumoniae | broth microdilution | BS-442 | 18 h | 1 µM |
| OB(O)c1ccc(OCc2ccccc2)nc1F | Citrobacter freundii | bacterial growth | AmpC overproducer clinical isolate | without cefotaxime | > 2050 µg/mL |
| CCCCCCCCCC(=O)NCCCC[C@H](NC(=O)CCCCCCCCC)C(=O)N[C@@H](CCCCNC(=O)CCCCCCCCC)C(=O)NCC(=O)NCC(=O)NCC(=O)N[C@@H](CS)C(=O)N[C@@H](CCCNC(=N)N)C(=O)N[C@@H](CCCCN)C(=O)N1CCC[C@H]1C(=O)N[C@@H](CS)C(=O)N[C@@H](CCCNC(=N)N)C(=O)N[C@@H](CCCCN)C(=O)N1CCC[C@H]1C(N)=O | Candida tropicalis | broth microdilution | CGMCC 2.197, RPMI-1640 | 48 h, 30 °C | 16 µM |
| C[N+]1=C2C(c3ccccc3)=[N+]([O-])c3ccccc3N2CCC1 | Clostridioides difficile |  |  |  | 8 to 64 µg/mL |
| CC[C@H](C)[C@@H]1NC(=O)[C@@H]2CCCN2C(=O)[C@H](C)NC(=O)[C@H](CC(C)C)NC(=O)[C@@H]2CCCN2C(=O)[C@H](C)NC(=O)[C@@H]2CSSC[C@H](NC(=O)[C@H](C)NC(=O)[C@H](C)NC(=O)[C@H](Cc3ccc(O)cc3)NC(=O)[C@@H]3CCCN3C(=O)CNC(=O)[C@H](Cc3c[nH]c4ccccc34)NC1=O)C(=O)N[C@@H](CC(C)C)C(=O)N[C@@H](CO)C(=O)N[C@@H](C)C(=O)N[C@H]1CSSC[C@H](NC(=O)[C@H](C(C)C)NC(=O)[C@@H]3CCCN3C(=O)CNC(=O)CNC(=O)CNC(=O)[C@H](C)NC(=O)[C@H](C)NC(=O)[C@H](CC(C)C)NC1=O)C(=O)N[C@@H](CC(C)C)C(=O)N[C@@H](C)C(=O)N[C@@H](C(C)C)C(=O)N2 | Salmonella typhimurium |  | ATCC 14028 |  | > 128 µg/mL |
| CC[C@H](C)[C@H](NC(=O)[C@H](CCCCN)NC(=O)[C@H](CCCCN)NC(=O)[C@H](Cc1ccccc1)NC(=O)[C@H](Cc1ccccc1)NC(=O)[C@H](CCCCN)NC(=O)[C@H](CCCCN)NC(=O)[C@H](Cc1ccccc1)NC(=O)[C@H](CCCNC(=N)N)NC(=O)[C@@H](N)CCCCN)C(=O)N[C@@H](CCCCN)C(=O)N[C@@H](CCCCN)C(=O)N[C@@H](CO)C(=O)N[C@H](C(=O)N[C@@H](CCCCN)C(=O)N[C@@H](CCCCN)C(=O)N[C@@H](CCCNC(=N)N)C(=O)N[C@H](C(=O)N[C@@H](CCCCN)C(=O)N[C@@H](CCCCN)C(=O)N[C@@H](CC(C)C)C(=O)N[C@@H](Cc1ccccc1)C(=O)N[C@@H](CCCCN)C(=O)N[C@@H](CCCCN)C(=O)N1CCC[C@H]1C(=O)N[C@@H](CCCNC(=N)N)C(=O)N[C@H](C(=O)N[C@H](C(=O)N1CCC[C@H]1C(=O)N[C@H](C(=O)N[C@@H](CO)C(=O)N[C@H](C(=O)N1CCC[C@H]1C(=O)N[C@@H](Cc1ccccc1)C(=O)O)[C@@H](C)CC)[C@@H](C)CC)[C@@H](C)CC)C(C)C)C(C)C)C(C)C | Escherichia coli | CLSI agar dilution | ATCC 25922 | 20 h, 37 °C | 8 µg/mL |
| CC[C@H](C)[C@H](N)C(=O)N[C@@H](CCCNC(=N)N)C(=O)N[C@H](C(=O)N[C@@H](Cc1c[nH]c2ccccc12)C(=O)N[C@@H](CCCCN)C(=O)N[C@@H](CCCCN)C(=O)N[C@H](C(=O)N[C@H](C(=O)N[C@@H](CCCNC(=N)N)C(=O)N[C@@H](CCCCN)C(=O)N[C@@H](Cc1c[nH]c2ccccc12)C(=O)N[C@@H](CCCCN)C(=O)N[C@@H](C)C(=O)N[C@H](C(=O)N[C@@H](Cc1c[nH]c2ccccc12)C(=O)N[C@@H](Cc1c[nH]cn1)C(N)=O)[C@@H](C)CC)C(C)C)[C@@H](C)CC)C(C)C | Enterobacter sp. | broth dilution | KCTC 2625 |  | < 3.1 µM |
| [O-][N+]1=C(c2ccccc2)C2=NCCN2c2ccccc21 | Clostridioides difficile |  |  |  | 0.125 to 1 µg/mL |
| CC1COC2=C1C(=O)C(=O)c1c2ccc2c1C(OC(=O)CNC(=O)CN)CCC2(C)C (mixture of isomers) | Cutibacterium acnes |  | GDMCC 1.243 | 48 h, anaerobic | 125 µM |
| CC(C)C[C@H](NC(=O)[C@@H](NC(=O)[C@H](CCCNC(=N)N)NC(=O)[C@H](CCC(N)=O)NC(=O)[C@H](Cc1ccccc1)NC(=O)[C@H](Cc1ccc(O)cc1)NC(=O)[C@H](CC(N)=O)NC(=O)[C@H](Cc1c[nH]c2ccccc12)NC(=O)[C@@H](NC(=O)[C@H](CCCNC(=N)N)NC(=O)[C@H](CCCCN)NC(=O)[C@@H](N)Cc1ccccc1)C(C)C)C(C)C)C(=O)N[C@H](C(=O)N[C@@H](CCCCN)C(=O)N[C@@H](CCCCN)C(=O)N[C@@H](Cc1ccc(O)cc1)C(N)=O)C(C)C | Salmonella typhimurium | broth dilution | SL1344 |  | 6.3 µM |
| CC[C@H](C)[C@H](NC(=O)[C@H](CCCNC(=N)N)NC(=O)[C@H](CO)NC(=O)[C@H](Cc1ccc(O)cc1)NC(=O)[C@@H](NC(=O)[C@@H](NC(=O)[C@H](C)NC(=O)CNC(=O)[C@H](CCCCN)NC(=O)[C@H](CCCCN)NC(=O)CCNC(=O)CCCCCNC(=O)[C@H](CCCNC(=N)N)NC(=O)CCCCCNC(=O)[C@H](CCCNC(=N)N)NC(=O)[C@H](CCCNC(=N)N)NC(=O)CCCCCNC(=O)[C@H](CCCNC(=N)N)NC(=O)[C@H](CCCNC(=N)N)NC(=O)CCCCCNC(=O)[C@H](CCCNC(=N)N)NC(=O)[C@H](CCCNC(=N)N)NC(=O)CCCCCNC(=O)[C@@H](N)CCCNC(=N)N)C(C)C)[C@@H](C)O)C(=O)N[C@@H](CO)C(=O)NCC(=O)N[C@@H](CCC(N)=O)C(=O)N[C@@H](Cc1ccc(O)cc1)C(=O)N[C@@H](CCCCN)C(=O)O | Escherichia coli |  | ATCC 25922, Mueller-Hinton broth | with: FeCl3 4 µM | 6 µM |
| CC[C@H](C)[C@@H]1NC(=O)[C@H](CO)NC(=O)C(C)(CCCCN)NC(=O)[C@@H]2CSSC[C@@H](C(=O)N[C@@H](Cc3ccc(O)cc3)C(N)=O)NC(=O)[C@H](CCCCN)NC(=O)[C@@H]3CSSC[C@H](NC(=O)[C@H](CCCNC(=N)N)NC(=O)C(C)(CC(C)C)NC(=O)[C@H](CC(=O)O)NC(=O)[C@H](CC(=O)O)NC(=O)[C@H](CCC(=O)O)NC(=O)[C@H](CC(N)=O)NC(=O)[C@H](Cc4c[nH]c5ccccc45)NC(=O)C(C)(CC)NC(=O)CNC(=O)[C@H](CC(N)=O)NC(=O)[C@@H](NC(=O)CNC(=O)[C@H](Cc4ccccc4)NC(=O)CN)CSSC[C@H](NC(=O)[C@H](Cc4ccc(O)cc4)NC(=O)CNC(=O)CNC(=O)[C@H](CCCCN)NC(=O)[C@H](Cc4ccc(O)cc4)NC(=O)[C@H]4CCCN4C(=O)[C@@H]4CCCN4C1=O)C(=O)N[C@@H](C)C(=O)N[C@@H](CCCCN)C(=O)N1CCC[C@@H]1C(=O)NCC(=O)N[C@@H](Cc1ccccc1)C(=O)N[C@@H](C(C)C)C(=O)N3)C(=O)N[C@@H](Cc1c[nH]cn1)C(=O)NC(C)(C)C(=O)N[C@@H](Cc1c[nH]cn1)C(=O)N2 (stereo partly drawn) | Streptococcus pneumoniae | broth microdilution | 19F | 18 h | 1 µM |
| [O-][N+]1=C(c2ccccc2)C2=NCCCN2c2ncccc21 | Clostridioides difficile |  |  |  | 0.25 to 1 µg/mL |
| CC[C@H](C)[C@@H]1NC(=O)[C@H](CCCNC(=N)N)NC(=O)[C@H]([C@@H](C)O)NC(=O)[C@H](C(C)C)NC(=O)[C@H](Cc2ccccc2)NC(=O)[C@H](C(C)C)NC(=O)[C@H](CCCNC(=N)N)NC(=O)[C@H](CCCNC(=N)N)NC(=O)[C@H](CCCNC(=N)N)NC(=O)[C@H](Cc2ccccc2)NC(=O)CNC(=O)[C@H](CCCCN)NC(=O)[C@@H](NC(=O)[C@H](CCCNC(=N)N)NC(=O)CNC(=O)CN)CSSC[C@@H](C(N)=O)NC1=O | Botrytis cinerea | resazurin | synthetic fungal medium | with: KCl 100 mM | > 6 µM |
| CC[C@H](C)[C@H](NC(=O)[C@H](Cc1c[nH]c2ccccc12)NC(=O)[C@H](Cc1ccc(O)cc1)NC(=O)[C@H](CCCCN)NC(=O)[C@H](CC(C)C)NC(=O)[C@@H](N)CO)C(=O)N[C@@H](CCCNC(=N)N)C(=O)N[C@@H](Cc1ccc(O)cc1)C(=O)N[C@@H](CCCCN)C(=O)N[C@@H](CCCNC(=N)N)C(=O)N[C@@H](CCC(N)=O)C(=O)NCC(=O)N[C@@H](C)C(=O)N[C@@H](C)C(=O)N[C@@H](CCCNC(=N)N)C(=O)N[C@@H](Cc1ccccc1)C(N)=O | Enterobacter sp. | broth dilution | KCTC 2625 |  | < 3.1 µM |
| CC[C@H](C)C[C@H](C)CCCCCCCCC(=O)N[C@H]1C[C@@H](O)[C@@H](NCCN)NC(=O)[C@@H]2[C@@H](O)CCN2C(=O)[C@H]([C@H](O)CCN)NC(=O)[C@H]([C@H](O)[C@@H](O)c2ccc(O)cc2)NC(=O)[C@@H]2C[C@@H](O)CN2C(=O)[C@H]([C@@H](C)O)NC1=O | Saccharomyces cerevisiae |  | S288c wild type |  | 0.008 µg/mL |

A few entries again:
| Compound | organism | assay | test system | conditions | MIC |
| --- | --- | --- | --- | --- | --- |
| CC[C@H](C)[C@H](NC(=O)[C@H](CCCNC(=N)N)NC(=O)[C@H](CO)NC(=O)[C@H](Cc1ccc(O)cc1)NC(=O)[C@@H](NC(=O)[C@@H](NC(=O)[C@H](C)NC(=O)CNC(=O)[C@H](CCCCN)NC(=O)[C@H](CCCCN)NC(=O)CCNC(=O)CCCCCNC(=O)[C@H](CCCNC(=N)N)NC(=O)CCCCCNC(=O)[C@H](CCCNC(=N)N)NC(=O)[C@H](CCCNC(=N)N)NC(=O)CCCCCNC(=O)[C@H](CCCNC(=N)N)NC(=O)[C@H](CCCNC(=N)N)NC(=O)CCCCCNC(=O)[C@H](CCCNC(=N)N)NC(=O)[C@H](CCCNC(=N)N)NC(=O)CCCCCNC(=O)[C@@H](N)CCCNC(=N)N)C(C)C)[C@@H](C)O)C(=O)N[C@@H](CO)C(=O)NCC(=O)N[C@@H](CCC(N)=O)C(=O)N[C@@H](Cc1ccc(O)cc1)C(=O)N[C@@H](CCCCN)C(=O)O | Escherichia coli |  | ATCC 25922, Mueller-Hinton broth | with: FeCl3 4 µM | 6 µM |
| CC[C@H](C)[C@@H]1NC(=O)[C@H](CO)NC(=O)C(C)(CCCCN)NC(=O)[C@@H]2CSSC[C@@H](C(=O)N[C@@H](Cc3ccc(O)cc3)C(N)=O)NC(=O)[C@H](CCCCN)NC(=O)[C@@H]3CSSC[C@H](NC(=O)[C@H](CCCNC(=N)N)NC(=O)C(C)(CC(C)C)NC(=O)[C@H](CC(=O)O)NC(=O)[C@H](CC(=O)O)NC(=O)[C@H](CCC(=O)O)NC(=O)[C@H](CC(N)=O)NC(=O)[C@H](Cc4c[nH]c5ccccc45)NC(=O)C(C)(CC)NC(=O)CNC(=O)[C@H](CC(N)=O)NC(=O)[C@@H](NC(=O)CNC(=O)[C@H](Cc4ccccc4)NC(=O)CN)CSSC[C@H](NC(=O)[C@H](Cc4ccc(O)cc4)NC(=O)CNC(=O)CNC(=O)[C@H](CCCCN)NC(=O)[C@H](Cc4ccc(O)cc4)NC(=O)[C@H]4CCCN4C(=O)[C@@H]4CCCN4C1=O)C(=O)N[C@@H](C)C(=O)N[C@@H](CCCCN)C(=O)N1CCC[C@@H]1C(=O)NCC(=O)N[C@@H](Cc1ccccc1)C(=O)N[C@@H](C(C)C)C(=O)N3)C(=O)N[C@@H](Cc1c[nH]cn1)C(=O)NC(C)(C)C(=O)N[C@@H](Cc1c[nH]cn1)C(=O)N2 (stereo partly drawn) | Streptococcus pneumoniae | broth microdilution | 19F | 18 h | 1 µM |
